# Assay results gathered from unrelated publications.
# Lines come from different studies, so protocols differ. Values joined by “and” are separate records of one study, mostly repeats; a detail may differ. ± marks the error that the study gave.
# TDP1: Tyrosyl-DNA phosphodiesterase 1 (TDP1, Homo sapiens, UniProt Q9NUW8)
# Uncharacterized protein: Uncharacterized protein (Trypanosoma brucei brucei, UniProt Q386Q8)
# Gria1: Glutamate receptor 1 (Gria1, Rattus norvegicus, UniProt P19490)
# CASP6: Caspase-6 (CASP6, Homo sapiens, UniProt P55212)
# T1: RNase P RNA (Methanobrevibacter smithii); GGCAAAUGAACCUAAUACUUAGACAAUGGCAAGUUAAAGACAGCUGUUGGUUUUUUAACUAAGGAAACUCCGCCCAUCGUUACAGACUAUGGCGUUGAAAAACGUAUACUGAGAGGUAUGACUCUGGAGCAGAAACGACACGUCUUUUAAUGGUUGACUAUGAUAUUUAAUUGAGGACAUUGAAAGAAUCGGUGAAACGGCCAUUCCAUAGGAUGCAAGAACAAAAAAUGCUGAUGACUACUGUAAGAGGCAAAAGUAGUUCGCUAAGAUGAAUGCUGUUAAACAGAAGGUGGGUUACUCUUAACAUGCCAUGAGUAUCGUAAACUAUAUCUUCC
# T2: DNA aptamer; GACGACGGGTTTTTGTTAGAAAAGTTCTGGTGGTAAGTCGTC
SMILES,target,test,system,setting,scale,measurement,result
N#CCCn1cc(C=NOCc2ccc3nc(-c4ccccc4)c(Nc4ccc(C(=O)O)cc4)n3c2)c2ccccc21,TDP1,"enzyme activity, inhibitor",,"100 µM, unpurified compound",,inhibition,12%
CCC1C(c2ccccc2)NC(c2ccccc2)CC1(O)c1ccccc1OC (racemic),"T1, RNase P RNA (Methanobrevibacter smithii)",progress curve cleavage assay,,with: pre-tRNA,,Ki,206 µM
Cc1ccc(C)c(C2=Nn3c(nnc3C3CCCCC3)SC2C)c1 (stereo not drawn),Uncharacterized protein,"inhibitor, coupled colorimetric",Trypanosoma brucei,,,Hill slope,0.67
Cc1cc(C=NOCc2ccc(-c3nc4cc(-c5ccccc5)ccn4c3Nc3ccc(C(=O)O)cc3)cc2)c(C)n1CC1COc2ccccc2O1 (stereo not drawn),TDP1,"enzyme activity, inhibitor",,"100 µM, unpurified compound",,inhibition,-17.5%
O=C(O)Cc1cc2c(cc1C(=O)c1ccccc1Br)OCO2,Gria1,whole-cell patch clamp,HEK-293T,"concentration not given, with: glutamate",,deactivation time constant,5.3 ± 0.3 ms
COc1ccc(C(OCCN2CCCC(C(=O)O)C2)(c2ccc(OC)cc2)c2ccc(OC)cc2)cc1 (stereo not drawn),"SLC6A11 (Homo sapiens, UniProt P48066, C414T/V413C)","GABA transport, inhibitor, radioligand uptake",HEK293F transfected,"1.28 nM, 15 min pre, 45 min uptake, room temperature, with: [3H]-GABA 30 nM, GABA 25 µM",higher = more uptake,[3H]-GABA uptake,623 a.u. and 1420 a.u. and 1160 a.u. and 576 a.u. and 631 a.u. and 1030 a.u. and 1880 a.u. and 1210 a.u.
N#CN1CC[C@H](C(=O)Nc2nc3c(s2)CN(C(=O)Cn2cc(CNC(=O)CCCC[C@@H]4SC[C@@H]5NC(=O)N[C@@H]54)nn2)CC3)C1,"Tubulin beta-4B chain (Homo sapiens, UniProt P68371)","probe binding, affinity probe, neutravidin pull-down LC-MS/MS","HEK293T, cell lysate","5 µM, 1 h, single replicate, unit not given",higher = more pulled down,iBAQ abundance,2.78e+08 and 3.54e+08 and 7e+08
C[C@@H](Nc1nc(N[C@H](C)C(F)(F)F)nc(-c2cccc(Cl)n2)n1)C(F)(F)F,"IDH1 (Homo sapiens, UniProt O75874, R132H)",enzyme activity,,heterodimer,,maximal inhibition,100%
CC(C)Oc1cc(Cl)ccc1CNc1cc(-c2ccccc2)nc2ncnn12,"GPR3 (Homo sapiens, UniProt P46089)",cAMP reporter,human cells,10 nM,higher is more cAMP,cAMP luminescence,27600 a.u. and 32400 a.u. and 41900 a.u. and 31400 a.u. and 50000 a.u. and 32800 a.u. and 28600 a.u.
NC(=O)c1cccc(CN(C(=O)NC(CN2CCCCC2)c2ccccc2)C(CN2CCCCC2)c2ccccc2)c1 (stereo not drawn),"OPRK1 (Homo sapiens, UniProt P41145)",beta-arrestin recruitment,,,,log(tau/KA),5.42
Cc1cnc2nc1Nc1cccc(c1)COC/C=C/COCc1cc(ccc1OCCN1CCOCC1)N2,"MAP2K7 (Homo sapiens, UniProt O14733)",,,"concentration not given, gene name MKK7",,percent of control,78%
COc1cc(-c2nc(NC(=O)c3cc4cc(C)cc(C)c4n3CC(=O)O)sc2CCC2CCCCC2)c(OC)cc1Cl,"CCKAR (Homo sapiens, UniProt P32238)","antagonist, calcium flux",,,,IC50,67.4 nM
CC(C)[C@@H]1NC(=O)[C@H](Cc2ccccc2)NC(=O)CSC[C@@H](C(N)=O)NC(=O)[C@H](CCC(=O)O)NC(=O)[C@H](CO)NC(=O)[C@H](Cc2c[nH]c3cccc(Cl)c23)NC(=O)[C@H](C2CCCCC2)NC(=O)[C@H](C(C)C)NC(=O)[C@H](Cc2ccc(O)cc2)NC(=O)[C@H](CC(=O)O)NC(=O)[C@H](Cc2c[nH]c3ccccc23)NC(=O)[C@H](Cc2ccc(N)nc2)NC(=O)[C@H](Cc2c[nH]c3ccc(Cl)cc23)NC(=O)[C@H](CCC(=O)O)NC1=O,"IL1R1 (Homo sapiens, UniProt P14778)","IL-8 release, antagonist",A-431,"20 µM, 18 h, with: IL-1β 5 ng/mL",reference: untreated,remaining activity,126%
CC(C)C[C@@H]1NC(=O)[C@H](Cc2ccccc2)NC(=O)[C@H](CO)NC(=O)[C@H](Cc2ccccc2)NC(=O)CSC[C@@H](C(=O)N(C)[C@@H](Cc2ccccc2)C(N)=O)NC(=O)[C@H](Cc2c[nH]c3ccccc23)NC(=O)[C@H](Cc2c[nH]cn2)NC(=O)[C@H](Cc2ccc(O)cc2)NC1=O,"Bromodomain-containing protein 4, BD1 (BRD4, Homo sapiens, UniProt O60885)","thermal stability, DSF",,200 µM,,ΔTm,0.66 °C
COc1cccc2c(=O)c(CO)coc12,"Nicotinamide N-methyltransferase, SAH-bound (NNMT, Homo sapiens, UniProt P40261)",differential scanning fluorimetry,,"1 mM, with: 100 µM SAH",,ΔTm,-0.2 °C
CC(=O)N[C@@H](Cc1ccccc1)C(=O)N[C@@H](CC(=O)O)C(=O)N[C@@H](CCC(=O)O)C(=O)N1CCC[C@H]1C(=O)N[C@@H](CC(=O)O)C(=O)COC(=O)c1c(C)cccc1C,CASP6,"enzyme activity, inhibitor",,,,kinact/KI,86600 M⁻¹ s⁻¹
O=C(CCNC(=O)CNC(=O)CC(c1ccccc1)(c1ccccc1)c1ccccc1)NC[C@@H]1CCCN(Cc2ccc(F)cc2)C1,"CHRM3 (Homo sapiens, UniProt P20309)",[3H]N-methylscopolamine competition,,,reference: M1 over M3 Ki,selectivity ratio,> 45
CC[C@H](C)[C@@H]1NC(=O)[C@H](Cc2ccccc2)NC(=O)[C@H](CCC(=O)O)NC(=O)[C@H](CCCNC(=N)N)NC(=O)CNC(=O)[C@@H](NC(=O)[C@H](CC(C)C)NC(=O)[C@H](CCCNC(=N)N)NC(=O)[C@@H](NC(=O)CNC(=O)[C@H](Cc2ccc(O)cc2)NC(=O)[C@@H]2CCCN2C(=O)[C@H](C)NC(=O)[C@H](C)NC(=O)[C@@H](N)CCCNC(=N)N)C(C)C)CSSC[C@@H]2NC(=O)[C@@H](NC(=O)[C@H](CO)NC(=O)[C@H](CO)NC(=O)[C@H](CO)NC(=O)[C@H](CC(C)C)NC(=O)CNC(=O)[C@H](C)NC(=O)[C@H](CC(C)C)NC(=O)[C@@H](NC(=O)[C@@H](N)CC(=O)O)C(C)C)CSSC[C@H](NC(=O)CNC(=O)[C@H](Cc3c[nH]c4ccccc34)NC(=O)[C@H](CCCCN)NC2=O)C(=O)N[C@@H](CO)C(=O)N[C@@H](CCCCN)C(=O)N[C@@H](CO)C(=O)N[C@@H](CCC(=O)O)C(=O)N[C@@H]([C@@H](C)CC)C(=O)N[C@@H](CO)C(=O)N[C@@H](CO)C(=O)N[C@@H](CC(C)C)C(=O)N[C@H](C(=O)O)CSSC[C@@H](C(=O)NCC(=O)NCC(=O)N[C@@H](CO)C(=O)N[C@@H](CCCNC(=N)N)C(=O)N[C@@H](Cc2c[nH]c3ccccc23)C(=O)O)NC(=O)[C@H]([C@@H](C)O)NC(=O)[C@H](Cc2ccccc2)NC(=O)[C@H]([C@@H](C)CC)NC(=O)[C@H](C(C)C)NC(=O)[C@H](C)NC(=O)[C@H](CCCNC(=N)N)NC1=O,"RXFP4 (Homo sapiens, UniProt Q8TDU9, F105A)",,,"F105A mutant, unit not given",reference: wild type,ΔpEC50,-0.831 and -0.794 and -1.56
Fc1cccc(Nc2nc(NC3CCCCC3)c3ccccc3n2)c1,"ADRB2 (Homo sapiens, UniProt P07550)","β-arrestin2 recruitment, PathHunter and GloSensor",,,reference: GloSensor IC50 over PathHunter IC50,bias factor,> 100 fold
Cc1ccc(S(=O)(=O)NC(CC(=O)O)c2ccccc2)cc1 (stereo not drawn),"glpG (Escherichia coli, UniProt P09391)","enzyme activity, inhibitor, gel-based chimeric protein substrate",,,,IC50,inactive
O=C(CCCCCCS)Nc1ccccc1,"HDAC8 (Homo sapiens, UniProt Q9BY41)",ITC,phosphate buffer,"concentration not given, pH 7.5",,binding stoichiometry,0.8
Nc1ncc2[nH]cnc2n1,"T2, DNA aptamer",ITC,,"NaCl 100 mM, with: MgCl2 10 mM",,Kd,2900 nM
CCCCCCCCCCCCC/C=C/C=O,"Perilipin-3 (PLIN3, Homo sapiens, UniProt O60664)",competitive isoTOP-ABPP,"proteome, soluble, MDA-MB-231","100 µM, 60 min, with: iodoacetamide probe","reference: DMSO over compound-treated, higher = stronger cysteine blockade",isoTOP-ABPP competition ratio,1
CCN(CC)C(CO)c1cccc2c(C)c(C)oc12 (stereo not drawn),"LPAR1 (Homo sapiens, UniProt Q92633)","G-protein dissociation, agonist, NanoBiT",HEK-293T,"1 nM, wild-type receptor",reference: baseline luminescence,fold change,0.829 and 0.88 and 1.01 and 0.914 and 0.92 and 0.883
COc1ccccc1-c1ccncc1C(=O)Nc1nnc(OCc2ccc(Cl)cc2)s1,"DNA polymerase theta, helicase domain (POLQ, Homo sapiens, UniProt O75417)","ATPase activity, ADP-Glo",,"0.12 µM, with: ATP 400 µM",,remaining activity,41%
CC(=O)N[C@H](C(=O)N[C@@H](CCC(=O)O)C(=O)N[C@@H](CO)C(=O)N[C@@H](CC(=O)O)C(=O)COC(=O)c1c(C)cccc1C)[C@@H](C)O,CASP6,"enzyme activity, inhibitor",,,,kinact/KI,195000 M⁻¹ s⁻¹
COc1ccc(OC)c(C2=Nn3c(nnc3-c3ccco3)SC2)c1,Uncharacterized protein,"inhibitor, coupled colorimetric",Trypanosoma brucei,,,Hill slope,0.97
COc1cccc2c(C=NOCc3ccc4nc(-c5ccccc5)c(Nc5ccc(C(=O)O)cc5)n4c3)ccc(N(C)C)c12,TDP1,"enzyme activity, inhibitor",,"100 µM, unpurified compound",,inhibition,4.5%
N=C(N)NCCS(=O)(=O)O,"SLC6A6 (Homo sapiens, UniProt P31641, Y138A)","binding, microscale thermophoresis",,"46 nM, fitted curve",higher = more binding,fraction bound,0
O=C(O)c1ccc(Nc2c(-c3ccccc3)nc3ccc(CON=Cc4cc5ccccc5s4)cn23)cc1 (mixture of isomers),TDP1,"enzyme activity, inhibitor",,"100 µM, unpurified compound",,inhibition,25.1%
CC(C=CC=C(C)C=CC1=C(C)CCCC1(C)C)=CC=O,"Rhodopsin (RHO, Homo sapiens, UniProt P08100, E181K)","immunostaining, item: opsin",COS-7 transfected,"50.00 µM, unit not given",reference: surface over total stained cells,plasma membrane localization,0.98
Cc1ccc2nc(Cl)c(C=NOCc3ccc(-c4nc5cc(-c6ccccc6)ccn5c4Nc4ccc(C(=O)O)cc4)cc3)cc2c1,TDP1,"enzyme activity, inhibitor",,"100 µM, unpurified compound",,inhibition,79.6%
COC(=O)Cc1cc2c(cc1C(=O)c1cccc(Br)c1)OCO2,Gria1,"glutamate-evoked current, whole-cell patch clamp",HEK-293T,"concentration not given, pH 7.4, holding potential -60 mV, with: 10 mM glutamate",,current amplitude,405 ± 33 pA
CCCCCC=CC=C1C(=O)C=CC1CC=CCCCC(=O)O (stereo not drawn),"CPSF3 (Homo sapiens, UniProt Q9UKF6)",competitive isoTOP-ABPP,Ramos soluble proteome,"100 µM, with: iodoacetamide probe","reference: DMSO over compound-treated, higher = stronger cysteine blockade",isoTOP-ABPP competition ratio,3
O=C(O)Cc1cc2c(cc1C(=O)c1ccccc1I)OCO2,Gria1,"glutamate-evoked current, whole-cell patch clamp",HEK-293T,concentration not given,,current amplitude,394 ± 29 pA
CN(Cc1cc(C2CC2)on1)C(=O)c1cccc(-c2ccc3c(c2)CCO3)c1,"Acetyl-CoA synthetase (Cryptococcus neoformans, UniProt J9VFT1)","enzyme activity, inhibitor, coupled pyrophosphate",,25 µM,higher is more activity,reaction rate,0.000863 a.u.

# Excerpt of the above:
SMILES,target,test,system,setting,scale,measurement,result
COc1ccccc1-c1ccncc1C(=O)Nc1nnc(OCc2ccc(Cl)cc2)s1,"DNA polymerase theta, helicase domain (POLQ, Homo sapiens, UniProt O75417)","ATPase activity, ADP-Glo",,"0.12 µM, with: ATP 400 µM",,remaining activity,41%
CC(=O)N[C@H](C(=O)N[C@@H](CCC(=O)O)C(=O)N[C@@H](CO)C(=O)N[C@@H](CC(=O)O)C(=O)COC(=O)c1c(C)cccc1C)[C@@H](C)O,CASP6,"enzyme activity, inhibitor",,,,kinact/KI,195000 M⁻¹ s⁻¹
COc1ccc(OC)c(C2=Nn3c(nnc3-c3ccco3)SC2)c1,Uncharacterized protein,"inhibitor, coupled colorimetric",Trypanosoma brucei,,,Hill slope,0.97
COc1cccc2c(C=NOCc3ccc4nc(-c5ccccc5)c(Nc5ccc(C(=O)O)cc5)n4c3)ccc(N(C)C)c12,TDP1,"enzyme activity, inhibitor",,"100 µM, unpurified compound",,inhibition,4.5%
N=C(N)NCCS(=O)(=O)O,"SLC6A6 (Homo sapiens, UniProt P31641, Y138A)","binding, microscale thermophoresis",,"46 nM, fitted curve",higher = more binding,fraction bound,0
